Published values gathered from unrelated publications.
Each numbered part is a random draw from the data of one study; scales do not carry over between parts. Several values in a cell are separate wells, animals, samples, runs or records.
Sequence of UniProt Q05655 (whole entry, looked up): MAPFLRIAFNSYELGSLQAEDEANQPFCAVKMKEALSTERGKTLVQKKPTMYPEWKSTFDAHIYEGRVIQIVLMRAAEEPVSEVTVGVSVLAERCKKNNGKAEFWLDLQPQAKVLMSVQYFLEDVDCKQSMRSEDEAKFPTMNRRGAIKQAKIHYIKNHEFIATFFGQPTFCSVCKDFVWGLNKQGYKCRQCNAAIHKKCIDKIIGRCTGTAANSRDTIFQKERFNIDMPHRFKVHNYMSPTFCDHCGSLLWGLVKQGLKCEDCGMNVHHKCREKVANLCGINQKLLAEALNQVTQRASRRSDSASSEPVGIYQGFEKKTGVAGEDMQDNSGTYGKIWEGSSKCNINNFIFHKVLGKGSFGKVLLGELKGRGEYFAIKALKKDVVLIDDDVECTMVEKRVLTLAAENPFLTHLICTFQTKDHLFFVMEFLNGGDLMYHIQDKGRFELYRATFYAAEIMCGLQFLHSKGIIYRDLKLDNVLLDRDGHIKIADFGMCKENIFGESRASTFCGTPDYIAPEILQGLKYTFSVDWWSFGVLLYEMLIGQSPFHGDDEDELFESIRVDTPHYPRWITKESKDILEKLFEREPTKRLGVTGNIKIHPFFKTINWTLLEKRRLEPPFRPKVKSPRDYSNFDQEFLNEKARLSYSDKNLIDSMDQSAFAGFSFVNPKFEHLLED
Sequence of UniProt P42336 (whole entry, unmodified, looked up): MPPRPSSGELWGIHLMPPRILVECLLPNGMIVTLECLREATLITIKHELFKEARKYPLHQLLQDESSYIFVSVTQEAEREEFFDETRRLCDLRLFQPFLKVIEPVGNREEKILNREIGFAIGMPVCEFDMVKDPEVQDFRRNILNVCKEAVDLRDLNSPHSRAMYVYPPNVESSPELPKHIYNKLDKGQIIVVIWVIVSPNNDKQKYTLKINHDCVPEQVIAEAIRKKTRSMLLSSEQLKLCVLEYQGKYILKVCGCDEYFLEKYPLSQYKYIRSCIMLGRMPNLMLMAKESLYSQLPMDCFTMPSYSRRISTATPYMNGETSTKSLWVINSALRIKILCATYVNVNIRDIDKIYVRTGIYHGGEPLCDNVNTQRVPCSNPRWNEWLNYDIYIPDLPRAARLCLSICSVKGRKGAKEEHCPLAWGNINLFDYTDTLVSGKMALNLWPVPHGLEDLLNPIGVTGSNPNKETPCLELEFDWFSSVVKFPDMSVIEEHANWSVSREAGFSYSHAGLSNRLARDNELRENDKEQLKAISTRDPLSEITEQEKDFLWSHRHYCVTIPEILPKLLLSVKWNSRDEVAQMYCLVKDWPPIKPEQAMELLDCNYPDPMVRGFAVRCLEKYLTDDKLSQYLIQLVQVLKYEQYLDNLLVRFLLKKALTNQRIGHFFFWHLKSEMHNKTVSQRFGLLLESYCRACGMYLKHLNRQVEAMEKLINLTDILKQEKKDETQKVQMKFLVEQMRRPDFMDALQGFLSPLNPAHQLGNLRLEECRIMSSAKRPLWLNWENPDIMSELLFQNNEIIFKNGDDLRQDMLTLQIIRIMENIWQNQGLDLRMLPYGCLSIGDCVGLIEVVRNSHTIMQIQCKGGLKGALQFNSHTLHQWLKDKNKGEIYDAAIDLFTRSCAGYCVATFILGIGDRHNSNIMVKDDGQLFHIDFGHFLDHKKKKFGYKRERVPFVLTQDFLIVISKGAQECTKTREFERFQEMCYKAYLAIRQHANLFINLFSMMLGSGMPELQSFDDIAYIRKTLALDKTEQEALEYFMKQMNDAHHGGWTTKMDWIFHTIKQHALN
Sequence of UniProt P54762 (whole entry, looked up): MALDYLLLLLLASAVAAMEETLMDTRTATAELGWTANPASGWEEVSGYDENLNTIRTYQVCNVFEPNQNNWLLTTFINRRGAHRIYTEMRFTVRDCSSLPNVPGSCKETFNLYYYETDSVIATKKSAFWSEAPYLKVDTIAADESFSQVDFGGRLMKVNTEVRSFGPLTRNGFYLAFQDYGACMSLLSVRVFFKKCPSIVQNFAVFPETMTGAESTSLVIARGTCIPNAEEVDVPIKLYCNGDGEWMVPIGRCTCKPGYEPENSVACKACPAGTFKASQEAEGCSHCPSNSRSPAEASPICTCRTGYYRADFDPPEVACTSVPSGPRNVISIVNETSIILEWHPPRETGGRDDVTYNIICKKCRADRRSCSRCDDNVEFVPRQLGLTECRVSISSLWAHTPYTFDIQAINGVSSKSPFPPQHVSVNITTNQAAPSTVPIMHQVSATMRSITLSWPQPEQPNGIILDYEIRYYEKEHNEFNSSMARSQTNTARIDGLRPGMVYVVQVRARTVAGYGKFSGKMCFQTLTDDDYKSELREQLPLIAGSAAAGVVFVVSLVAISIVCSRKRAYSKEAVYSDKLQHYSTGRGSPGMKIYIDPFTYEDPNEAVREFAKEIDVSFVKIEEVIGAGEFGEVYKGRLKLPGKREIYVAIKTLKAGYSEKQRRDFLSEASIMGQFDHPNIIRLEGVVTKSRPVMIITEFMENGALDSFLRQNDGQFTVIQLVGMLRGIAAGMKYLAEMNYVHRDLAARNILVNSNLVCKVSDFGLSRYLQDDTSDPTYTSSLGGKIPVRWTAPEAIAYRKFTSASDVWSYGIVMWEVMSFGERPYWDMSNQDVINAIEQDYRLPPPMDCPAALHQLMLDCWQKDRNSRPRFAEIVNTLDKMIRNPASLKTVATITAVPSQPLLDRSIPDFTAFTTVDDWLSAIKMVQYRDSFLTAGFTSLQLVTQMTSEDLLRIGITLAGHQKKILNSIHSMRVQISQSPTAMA
Sequence of UniProt P21860 (whole entry, looked up): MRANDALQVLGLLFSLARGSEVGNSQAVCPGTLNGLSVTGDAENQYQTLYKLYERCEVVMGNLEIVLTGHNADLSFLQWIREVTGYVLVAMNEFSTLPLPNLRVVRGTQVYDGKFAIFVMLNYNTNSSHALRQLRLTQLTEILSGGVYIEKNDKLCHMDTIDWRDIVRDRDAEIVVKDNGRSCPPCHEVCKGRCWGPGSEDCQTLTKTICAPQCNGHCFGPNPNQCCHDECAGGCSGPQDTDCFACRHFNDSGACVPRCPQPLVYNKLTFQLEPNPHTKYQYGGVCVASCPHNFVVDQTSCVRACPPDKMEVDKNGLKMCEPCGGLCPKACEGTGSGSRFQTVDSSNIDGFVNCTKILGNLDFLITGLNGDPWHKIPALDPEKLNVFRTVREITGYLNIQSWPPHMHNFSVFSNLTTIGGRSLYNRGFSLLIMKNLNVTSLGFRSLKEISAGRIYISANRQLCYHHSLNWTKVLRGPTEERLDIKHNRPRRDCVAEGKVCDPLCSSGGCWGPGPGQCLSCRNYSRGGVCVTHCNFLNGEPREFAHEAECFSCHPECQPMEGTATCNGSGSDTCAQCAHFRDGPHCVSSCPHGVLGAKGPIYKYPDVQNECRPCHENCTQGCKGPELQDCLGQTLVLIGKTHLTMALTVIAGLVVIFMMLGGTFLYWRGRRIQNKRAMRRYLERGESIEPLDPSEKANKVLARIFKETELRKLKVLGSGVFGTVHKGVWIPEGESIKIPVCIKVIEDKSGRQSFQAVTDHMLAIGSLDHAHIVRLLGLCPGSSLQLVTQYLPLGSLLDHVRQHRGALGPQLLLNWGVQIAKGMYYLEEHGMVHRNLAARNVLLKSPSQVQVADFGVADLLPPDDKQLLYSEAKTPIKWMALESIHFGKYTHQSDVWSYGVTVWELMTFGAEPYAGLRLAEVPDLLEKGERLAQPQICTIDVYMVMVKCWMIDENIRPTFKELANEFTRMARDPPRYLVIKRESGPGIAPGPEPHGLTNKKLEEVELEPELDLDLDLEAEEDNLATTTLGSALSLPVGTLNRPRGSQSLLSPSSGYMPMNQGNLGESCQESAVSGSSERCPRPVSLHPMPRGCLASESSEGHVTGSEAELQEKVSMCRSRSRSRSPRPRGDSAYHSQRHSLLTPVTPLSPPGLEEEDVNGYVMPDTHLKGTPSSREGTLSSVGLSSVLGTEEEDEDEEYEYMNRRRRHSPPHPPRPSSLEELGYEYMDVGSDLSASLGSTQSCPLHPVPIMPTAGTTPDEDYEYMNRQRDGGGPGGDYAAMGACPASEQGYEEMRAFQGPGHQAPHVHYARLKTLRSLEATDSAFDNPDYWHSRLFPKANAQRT
Sequence of UniProt Q96BR1 (whole entry, looked up): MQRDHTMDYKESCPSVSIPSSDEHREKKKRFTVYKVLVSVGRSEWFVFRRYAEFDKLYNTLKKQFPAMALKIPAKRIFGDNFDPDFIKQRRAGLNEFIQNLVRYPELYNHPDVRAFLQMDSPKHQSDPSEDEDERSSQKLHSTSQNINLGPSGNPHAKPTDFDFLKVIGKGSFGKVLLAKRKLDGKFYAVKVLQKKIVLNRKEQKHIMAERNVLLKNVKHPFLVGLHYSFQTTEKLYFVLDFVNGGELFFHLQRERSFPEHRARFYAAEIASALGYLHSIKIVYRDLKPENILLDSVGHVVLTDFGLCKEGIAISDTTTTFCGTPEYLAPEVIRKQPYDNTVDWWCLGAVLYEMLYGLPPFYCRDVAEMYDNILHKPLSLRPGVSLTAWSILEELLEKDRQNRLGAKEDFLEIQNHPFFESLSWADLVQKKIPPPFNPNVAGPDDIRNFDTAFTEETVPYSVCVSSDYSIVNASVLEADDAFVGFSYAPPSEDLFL

Set 1 — organism: Sarcocystis neurona; read-out: parasite growth; tested at: concentration not given; setting: second screen; baseline: untreated
SMILES | log2 fold change
CN1[C@@H]2CC[C@H]1C[C@@H](OC(c1ccccc1)c1ccccc1)C2.CS(=O)(=O)O | 0.3
CCC(C)(C)N=C(NC#N)Nc1cccnc1 | 0.24
CCN(CC)C(=O)C1(c2ccccc2)CC1CN.Cl (stereo not drawn) | 0.35
COc1ccccc1N1CCN(CCCNc2cc(=O)n(C)c(=O)n2C)CC1.Cl | 0.39

Set 2 — read-out: cell-free assay; technique: competition with immobilised ligand; tested at: 1 µM
SMILES: CNC(=O)Nc1ccc2c(c1)CC[C@@]21OC(=O)N(CC(=O)N(Cc2ccc(F)cc2)[C@@H](C)C(F)(F)F)C1=O
target | remaining binding
Cytoplasmic tyrosine-protein kinase BMX (BMX, Homo sapiens, UniProt P51813) | 72%
Receptor tyrosine-protein kinase erbB-3 (ERBB3, Homo sapiens, UniProt P21860) | 89%
Activated CDC42 kinase 1 (TNK2, Homo sapiens, UniProt Q07912) | 90%
Mitogen-activated protein kinase kinase kinase 14 (MAP3K14, Homo sapiens, UniProt Q99558) | 67%
Ribosomal protein S6 kinase alpha-2, C-terminal kinase domain (RPS6KA2, Homo sapiens, UniProt Q15349) | 90%
Serine/threonine-protein kinase DCLK3 (DCLK3, Homo sapiens, UniProt Q9C098) | 83%
SRSF protein kinase 2 (SRPK2, Homo sapiens, UniProt P78362) | 100%
Protein kinase C delta type (PRKCD, Homo sapiens, UniProt Q05655) | 76%
Tyrosine-protein kinase ABL1, phosphorylated (ABL1, Homo sapiens, UniProt P00519, Q252H) | 81%
Serine/threonine-protein kinase Sgk3 (SGK3, Homo sapiens, UniProt Q96BR1) | 68%
Fibroblast growth factor receptor 2 (FGFR2, Homo sapiens, UniProt P21802) | 88%
Phosphatidylinositol 4,5-bisphosphate 3-kinase catalytic subunit alpha isoform (PIK3CA, Homo sapiens, UniProt P42336, H1047Y) | 91%
Ephrin type-B receptor 1 (EPHB1, Homo sapiens, UniProt P54762) | 97%
Epidermal growth factor receptor (EGFR, Homo sapiens, UniProt P00533, L861Q) | 94%
Myosin light chain kinase, smooth muscle (MYLK, Homo sapiens, UniProt Q15746) | 66%

Set 3 — species: mouse; sample: microsomes or S9; tested at: 2 µM; time: 0.5 h
SMILES | remaining compound
CC12CCC(C(=O)N(c3ccccn3)c3ccccn3)(OC1=O)C2(C)C (stereo not drawn) | 0.579%
COc1ccc(CN2CCC3(CCNCC3)C2)cc1Cn1cncn1 | 34.9%
CC(=O)Nc1ccc(C(=O)N(Cc2cccnc2)C2(C(=O)NCc3ccccc3)CCN(C(C)=O)CC2)cc1 | 37.9%

Set 4 — mode: antagonist
Target: Beta-1 adrenergic receptor (ADRB1, Homo sapiens, UniProt P08588)
Sequence of UniProt P08588 (whole entry, looked up): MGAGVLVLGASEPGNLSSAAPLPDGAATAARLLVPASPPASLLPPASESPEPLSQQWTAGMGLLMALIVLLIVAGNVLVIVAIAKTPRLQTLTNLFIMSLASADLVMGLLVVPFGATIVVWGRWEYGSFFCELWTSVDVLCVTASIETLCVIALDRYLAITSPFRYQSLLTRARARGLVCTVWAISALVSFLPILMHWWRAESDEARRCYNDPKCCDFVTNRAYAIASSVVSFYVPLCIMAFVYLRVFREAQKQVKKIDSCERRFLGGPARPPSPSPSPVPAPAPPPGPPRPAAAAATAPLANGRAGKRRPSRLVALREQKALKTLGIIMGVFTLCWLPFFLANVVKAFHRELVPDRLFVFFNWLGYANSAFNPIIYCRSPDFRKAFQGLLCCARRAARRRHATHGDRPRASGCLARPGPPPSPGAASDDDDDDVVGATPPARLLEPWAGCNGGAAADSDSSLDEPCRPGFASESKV
SMILES | IC50
C=CCNC(=O)[C@@H]1Cc2cn(CC#CC)c3cccc(c23)[C@H](CC(C)C)N1 | ≥ 100 µM
Cc1noc2c(-c3cccnc3)cc(-c3ccc(F)cc3)nc12 | ≥ 100 µM
CC1(C)CC(=O)c2cc(C(=O)Nc3ccccc3)c(O)nc2C1 | ≥ 100 µM

Set 5 — cell line: mouse MPNST tumor cells; technique: high-content immunofluorescence imaging; refers to: nuclear SOX9; tested at: 10 µM; time: 12 h; setting: mean of 2 replicates; baseline: DMSO control; reading: higher = more nuclear SOX9
SMILES | nuclear SOX9 intensity
CCCNC(C)C(=O)Nc1c(C)csc1C(=O)OC (stereo not drawn) | 83.5 % of DMSO
CCN(CC)CCNC(=O)c1cc(Cl)c(N)cc1OC | 101 % of DMSO
O=C(O)c1ccc(O)c2ncccc12 | 103 % of DMSO

Other studies, line by line
Structure (SMILES) | tested on | test | system | setting | scale | endpoint | result
CCCN1C(=O)[C@H](CC(C)C)NC(=O)[C@@H](N(C)C(=O)[C@H](CC2CCC2)NC(=O)[C@@H]2C[C@@H](F)CN2C(=O)[C@@](C)(O)C(F)(F)F)CCCCNC(=O)C2(CC2)NC(=O)[C@@H]1Cc1cc(Cl)ccc1Cl | – | – | mouse NCI-H1048 xenograft | iv, 100 mg/kg once daily, day 7 | – | tumour volume | 297 mm3 and 417 mm3 and 314 mm3 and 225 mm3 and 364 mm3 and 291 mm3 and 376 mm3 and 342 mm3
CC1=C(/C=C/C(C)=C/C=C/C(C)=C/C(=O)O)C(C)(C)CCC1 | HuT78 | qPCR, refers to: LTA | – | concentration not given, unit not given | baseline: vehicle | mRNA level | 1.38 and 1.68 and 1.44

For quick reference, copied from above (set 5):
SMILES | nuclear SOX9 intensity
CCCNC(C)C(=O)Nc1c(C)csc1C(=O)OC (stereo not drawn) | 83.5 % of DMSO
CCN(CC)CCNC(=O)c1cc(Cl)c(N)cc1OC | 101 % of DMSO
O=C(O)c1ccc(O)c2ncccc12 | 103 % of DMSO
